Assay results pooled from the literature.
Numbered parts are unrelated; each lists some results of a single study.

Block 1
Target: Histone acetyltransferase KAT6A, both winged helices, GST fusion (KAT6A, Homo sapiens, UniProt Q92794, residues 1-181)
Technique: protein binding microarray
Molecule type: double-stranded DNA, one strand shown
Matrix: in vitro
Tested at: not given
Notes: 8-mer, flanks averaged, mean of 2 arrays, mostly near background
Reference: not given
Direction: higher = stronger binding
Construct (chain): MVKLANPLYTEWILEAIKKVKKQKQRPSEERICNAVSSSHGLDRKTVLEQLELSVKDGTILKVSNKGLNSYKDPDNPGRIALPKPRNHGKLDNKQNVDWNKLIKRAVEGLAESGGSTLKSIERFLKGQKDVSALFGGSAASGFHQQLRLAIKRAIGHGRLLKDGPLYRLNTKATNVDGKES
Oligonucleotide | E-score
GAGACACA | -0.18
GACGTTTA | 0.107
ACAGCTTA | -0.051
ATCTAGAA | -0.0612
CTAGCGAG | 0.0242
CACCGGAC | 0.118
ACCTATAT | 0.0164
AGCCAACT | -0.164
GACCTAGA | 0.0182
AGAGAAGC | -0.0518
AGCAAACC | -0.14
ACAGACAG | 0.0028
CGTGCAAA | -0.0597
CGTTCAAC | 0.0625
AGAATGCG | 0.12
AGTTTGAT | -0.0452
AAGCCACA | -0.0857
CAATAAAG | -0.042
ACTTGGAT | -0.135
CTATGCAG | -0.0613
CTGGTTCC | 0.0126
CCCTCGAC | -0.146
AATTGTAC | -0.0299

Block 2
Target: RNA binding protein fox-1 homolog 2, RRM domain, GST-SBP tag (RBFOX2, Homo sapiens, UniProt O43251-10, residues 100-194)
Technique: RNA Bind-n-Seq
Molecule type: RNA
Matrix: in vitro
Tested at: 365 nM
Notes: natural RNA segment, single round, ends assumed
Reference: no-protein control
Direction: higher = stronger binding
Oligonucleotide | RBNS enrichment (R)
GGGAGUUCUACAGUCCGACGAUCGAUUCAGAAAUACAUUUUCAUUAUCCAAAAUCAGCUUCAACAAAUGGUUUCUGGAGACAAAUAAUUUGUUUUCAUUAUCAUUGUAUAAUCAGGUUAAUGAUUUAUUUUUUUGGAAUUCUCGGGUGCCAA | 0.581
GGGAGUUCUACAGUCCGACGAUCCCCUCCCAAGAAACCAGGUUGGAGAGGCCCAAGUCACUGGGGCCCACCCUUGCUAGGGUUUCCGUACAGCCACGUGGCCGGGGCCAUGGCUUUCAAGUGCUGUCUGGGGGUGGAAUUCUCGGGUGCCAA | 0.372
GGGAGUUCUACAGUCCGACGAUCCUUGCUAUGUAUUAGCCGAUGUCUUUAGUGUUGAGCCUCUGGAUUCUGGGGUCUGGGCCAGUGGCCAUAGUGAAGCCUGGGAAUGAGUGUUACUGCAGCAUCUGGGCUGCUGGAAUUCUCGGGUGCCAA | 0.963
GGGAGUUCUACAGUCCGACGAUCCCCCGCCUGCCACCUCCCCCCACAAGUGCCCUCCAGGCUUUUCUUGGGGAAGAUACCCCUUUUCUGAGGAAUGAGUUUGCCUCCGUCCCCUGCCCAUGCUGGGAGCCCACUGGAAUUCUCGGGUGCCAA | 0.518
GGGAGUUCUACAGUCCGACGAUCCCUGGCACCUGGCUCUGGCCGUGUUUUCUGGCCAGAGGCCCCCACUUUCCUAACUCGUGCUCCCUUCCGCCUUCUUUUCCGUACUGUGAAGAAAGAACUCUCCACCCCAGUGGAAUUCUCGGGUGCCAA | 0.53
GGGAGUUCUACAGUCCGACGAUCAGUCUGGCCAGUGCCAAGAGACAACAUAACAUGGCAGGUGGAUGGUGUCGGUGUCAUUGUCUCAGCUCAAAGAGCCACCUGCUUCAGAUACCAUGGGCAUGUGCUGAGUGUGGAAUUCUCGGGUGCCAA | 0.704
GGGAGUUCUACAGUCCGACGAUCGGGAACAACAGCCCGUGGAACAGUAAACCUCCCGCCACUCAAGAGACCAAAUCAGAAAACCCCCCACCCCAGGCUUCCCAAUAAGAUGAUCGGCACCAGAAUCCACUGUCUGGAAUUCUCGGGUGCCAA | 1.47
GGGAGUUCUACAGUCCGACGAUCCACCCCCUCCUCCCCAUCCCACCCUUUGGAAACUCCCCAUUGUCACUGAGAACCACCAAAUCUGACUUUUACAUUUGGUCUCAGAAUUUAGGUUCCUGCCCUGUUGGUUUUGGAAUUCUCGGGUGCCAA | 0.669

Block 3
Target: RING finger protein unkempt homolog, zinc fingers 1-6, GST-SBP tag (UNK, Homo sapiens, UniProt Q9C0B0, residues 30-357)
UniProt Q9C0B0, sequence (30-357, looked up): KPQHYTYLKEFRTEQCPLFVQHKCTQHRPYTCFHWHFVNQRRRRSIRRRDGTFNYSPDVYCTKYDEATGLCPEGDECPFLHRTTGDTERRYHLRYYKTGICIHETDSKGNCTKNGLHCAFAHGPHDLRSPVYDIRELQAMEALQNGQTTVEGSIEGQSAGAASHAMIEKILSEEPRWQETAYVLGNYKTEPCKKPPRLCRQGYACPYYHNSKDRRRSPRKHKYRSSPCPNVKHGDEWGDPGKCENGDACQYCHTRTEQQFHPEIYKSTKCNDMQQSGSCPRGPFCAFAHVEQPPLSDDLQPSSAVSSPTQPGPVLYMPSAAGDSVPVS
Technique: RNA Bind-n-Seq
Molecule type: RNA
Matrix: in vitro
Tested at: not given
Notes: RNA with constant flanks, human and mouse sites, ends assumed
Reference: input RNA pool
Direction: higher = stronger binding
Oligonucleotide | bound/input enrichment
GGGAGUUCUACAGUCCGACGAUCAAUGGUUUGCACGACUUUGAACAUAUACUAUCCAUGCUGAUGGGACAGGAUCCAAUAUGAAUAUAAAUGAUGGAGGAAGACGACGCUUUGAAGAUAAUGAACAUACAUUACGGAUAUAUCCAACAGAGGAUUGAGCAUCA | 0.219 ratio
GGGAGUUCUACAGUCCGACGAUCUUAGCAUGCUGUAUGCCUCCCUCGUACAGUACAUCAGUUUACACUCUGAAGGCGUUCUAGAAUAGUGUUGCCUAGUUUAAGGAAAGGGUAUUACAGUGUUCUUCACAACUUAAGAAUUUUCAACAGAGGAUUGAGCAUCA | 0.233 ratio
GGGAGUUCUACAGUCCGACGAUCUAUUUAUGUCAAUAUUGUGAAUAUUCAACAGGACAAAUUGAAGAUCUUAAAAUUCAUCUAGAUUUCAAGCAUUCAGCUGACUUGCCUCAUAAAUGUAGUGACUGCUUGAUGAGGUUUGGACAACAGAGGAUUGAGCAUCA | 0.429 ratio
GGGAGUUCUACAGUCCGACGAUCUCUGCUGCGUGGACAAGGACACUCUCCGAUGCCACUUCCUCAGGCCCUUUUCCAAGGAAGACUAGAUGGAGUUGGCUUUUUAUGCAAAGGUCGUUGGAUUUCAGGGUGAGCACUGAGAGCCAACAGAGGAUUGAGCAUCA | 0.156 ratio
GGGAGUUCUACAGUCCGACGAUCCGCGCGCCGGGGGGCGUGGGCUCGAGGGCGGGGAGCAGCGCCAAGUUGGUGAAGGGAGACCCAGGAAAGGCCUAGGGUUUGCGGAAGAUACUUGUCUGCAAGGAACCUGUCCCACUGAUACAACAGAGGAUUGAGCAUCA | 0.164 ratio
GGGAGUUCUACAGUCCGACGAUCGGCACAAUUGGAUAUGGCCUUGGCUCUUCAAGACCAAAGGAUGCUCUUAGAAUCCCUCAAAGUAGCCACCAUGAUGUCAAAAGCAACUGAUAAAGUAUCCAAACCUAGAGAACAAAUCUCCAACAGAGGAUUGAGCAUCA | 0.768 ratio
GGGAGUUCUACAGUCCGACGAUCUCAGACAUCUAUGUGUGCAUGAUCUCCUAUGCGCACAACGUGGCCGCACAGGGCAAAUACAUCGCCAUUGCCAGCACCACUGUAGAGACUGCAGAACCAGAAAAGGAAGUUGAGCCUGCACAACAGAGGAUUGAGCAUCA | 0.21 ratio
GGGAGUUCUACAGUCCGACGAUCCUGCAUUUUGUCCACAUGAGAGGAUUACCUUUCCAAGCCAAUGCCCAAGACAUUAUAAACUUUUUUGCUCCACUCAAGCCUGUUAGAAUCACCAUGGAAUACAGCUCCAGUGGGAAGGCCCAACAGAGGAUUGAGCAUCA | 0.268 ratio

Block 4
Target: Interferon regulatory factor 7, full length, phosphomimetic (IRF7, Homo sapiens, UniProt Q92985, residues 1-503, S101K/S471D/S472D/S475D/S476D/S477D/S483D/S484D/S487D)
UniProt Q92985, sequence (whole entry, unmodified, looked up): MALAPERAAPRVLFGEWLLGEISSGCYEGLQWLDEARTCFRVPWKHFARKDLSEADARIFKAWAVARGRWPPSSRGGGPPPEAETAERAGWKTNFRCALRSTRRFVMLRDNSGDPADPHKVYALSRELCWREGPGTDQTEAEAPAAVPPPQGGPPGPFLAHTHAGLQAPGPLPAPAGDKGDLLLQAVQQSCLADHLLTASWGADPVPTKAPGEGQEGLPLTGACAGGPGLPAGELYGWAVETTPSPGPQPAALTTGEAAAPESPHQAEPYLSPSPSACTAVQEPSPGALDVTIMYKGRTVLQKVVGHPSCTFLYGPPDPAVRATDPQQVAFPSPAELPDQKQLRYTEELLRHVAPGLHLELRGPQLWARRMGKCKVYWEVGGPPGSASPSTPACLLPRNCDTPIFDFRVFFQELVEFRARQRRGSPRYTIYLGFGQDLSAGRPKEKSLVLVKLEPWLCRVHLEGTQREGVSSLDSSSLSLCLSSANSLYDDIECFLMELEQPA
Technique: protein-binding microarray
Molecule type: double-stranded DNA, one strand shown
Matrix: in vitro
Tested at: 250 nM
Notes: 60-bp whole probe
Added: salmon DNA 0.4 mg/ml
Reference: random background probes
Direction: higher = stronger binding
All sequences stand within: GCCTAGCAC … GTCTTGATTCGCTTGACGCTGCTG
Oligonucleotide | log fluorescence [z-score]
TTAGGACTGGGGACTGGGTGAGTGCTA | -0.528
TCATTTTTGCATTGCTTACTGTGCTAG | 0.713
TCAAACTTCCCAATGGTACTGTGCTAG | 0.291
GACGGTTTCCTGCTGCTGACGTGCTAG | 1.06
GACCGTCTCCTTTTCCTGACGTGCTAG | 0.848
GACGATTTCGGGACTGGACACGTGCTA | -0.0678
CTAGGACTGCTTATCCTTTAGTGCTAG | 0.2
TTAGGACCGGGGTATCGGTTAGTGCTA | 1.02
TTAGGTATCTTTATCCTTTAGTGCTAG | 0.299
TCAAAAATCAAGTCTGGGACTGTGCTA | -0.731
TAAGGTTTCGACTTTCGGTTAGTGCTA | 11.7
TTAGGTTTCGGAATCGGTTAGTGCTAG | 10.6
CACATTCTCTGCTTGGGTCTGTGCTAG | 1.14
TTTTTTTTTTTTGTATTTTTGTGCTAG | 0.805
CACGGACTGGGGACTGGGGACGTGCTA | -0.447
TTAGGTATCGGGTATCGGGTAGTGCTA | 0.754
TGAGATTTCAGTTCCGATTAGTGCTAG | 1.32
GACATCCCCAGTCTCATATTGTGCTAG | 0.877
TGGTTTTCCTTATTGCTTCCTGTGCTA | 2.96

Excerpt of the above (block 1):
Oligonucleotide | E-score
AGAGAAGC | -0.0518
ACTTGGAT | -0.135
CACCGGAC | 0.118
ATCTAGAA | -0.0612
CAATAAAG | -0.042
AGTTTGAT | -0.0452
CTATGCAG | -0.0613
